Results pooled from the literature.
Parts stem from different laboratories: compare values within a part only.

Block 1
Target: Histone acetyltransferase KAT6A, winged helix 2, GST fusion (KAT6A, Homo sapiens, UniProt Q92794, residues 85-181)
Method: protein binding microarray
Form: double-stranded DNA, one strand shown
Medium: in vitro
Tested at: not given
Notes: 8-mer, flanks averaged, mean of 2 arrays, mostly near background
Baseline: not given
Reading: higher = stronger binding
Construct (chain): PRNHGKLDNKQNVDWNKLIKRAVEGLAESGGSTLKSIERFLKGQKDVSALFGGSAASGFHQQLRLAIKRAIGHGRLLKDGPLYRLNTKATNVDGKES
Strand	E-score
CTGACTTA	0.0956
AAGCCTAA	0.0245
CGTCTCCC	0.075
GTGGTGCA	-0.0592
AGGGATGG	0.0423
CTCCGGAG	-0.0602
AATCCGTA	-0.23
AAACACGC	0.0766
AACCCTCG	0.0023
GGCTACAA	0.135
GAGCTCAA	0.00248
CTTGACGA	0.0561
AGGAGAGC	0.0365
AAGATACA	-0.0418
TCGTAACA	-0.0858
CAATCGGC	-0.0409
GGACACAA	0.112
AACAAGAA	0.041
GCAAAAGC	0.0519
CGGATTCC	-0.0146
ATAAGGGG	-0.125
AGTCGCCG	0.0901
GGTCGATA	-0.144

Block 2
Target: Prothrombin, mature alpha-thrombin (F2, Homo sapiens, UniProt P00734)
Method: aptamer microarray, sandwich
Form: DNA with 2'F-ANA
Medium: in vitro
Tested at: 200 nM
Notes: whole 15-mer aptamer, many near background
Together with: Cy3 exosite-II aptamer, 400 nM
Reading: higher = stronger binding
Strand: GGTTGGTGTGGTTGG
Modification	mean fluorescence intensity [a.u.]
2'F-ANA at 1 2 5 6 7 11 13 14 15	51.9
2'F-ANA at 1 3 6 8 10 13 15	69.7
2'F-ANA at 1 2 4 7 9 13	75.3
2'F-ANA at 1 2 6 9 10 12 14	48.2
2'F-ANA at 1 4 5 7 8 9 10 11 14 15	48.6
2'F-ANA at 2 7 11 13 15	321
2'F-ANA at 1 3 6 8 12 15	622
2'F-ANA at 1 3 4 5 6 7 11 12 14 15	50
2'F-ANA at 2 4 7 8 10 15	99.6
2'F-ANA at 1 3 5 6 9 13 15	52.4
2'F-ANA at 1 3 5 11 12 14 15	49
2'F-ANA at 3 7 10 12	802
2'F-ANA at 3 4 8 9 11 12 14 15	285
2'F-ANA at 1 2 3 4 5 6 7 11 12 13 15	71
2'F-ANA at 2 4 7 9 11 13 15	152
2'F-ANA at 1 2 5 7 8 9 10 11 14 15	48.6
2'F-ANA at 1 3 5 7 8 11 12 13 15	93.2
2'F-ANA at 2 3 5 9 11 12 15	177
2'F-ANA at 3 5 6 7 8 9 14 15	55.6
2'F-ANA at 2 4 6 9 10 11 12 14	60.7
2'F-ANA at 4 5 7 8 9 12 13 14	72.9
2'F-ANA at 3 4 6 7 11 12	762
2'F-ANA at 1 2 3 4 6 7 11 13 15	95.2
2'F-ANA at 1 6 7 9 10 15	54.3

Block 3
Target: Ras GTPase-activating protein-binding protein 1, C-terminal RGG region (G3BP1, Homo sapiens, UniProt Q13283)
UniProt Q13283, sequence (whole entry, looked up): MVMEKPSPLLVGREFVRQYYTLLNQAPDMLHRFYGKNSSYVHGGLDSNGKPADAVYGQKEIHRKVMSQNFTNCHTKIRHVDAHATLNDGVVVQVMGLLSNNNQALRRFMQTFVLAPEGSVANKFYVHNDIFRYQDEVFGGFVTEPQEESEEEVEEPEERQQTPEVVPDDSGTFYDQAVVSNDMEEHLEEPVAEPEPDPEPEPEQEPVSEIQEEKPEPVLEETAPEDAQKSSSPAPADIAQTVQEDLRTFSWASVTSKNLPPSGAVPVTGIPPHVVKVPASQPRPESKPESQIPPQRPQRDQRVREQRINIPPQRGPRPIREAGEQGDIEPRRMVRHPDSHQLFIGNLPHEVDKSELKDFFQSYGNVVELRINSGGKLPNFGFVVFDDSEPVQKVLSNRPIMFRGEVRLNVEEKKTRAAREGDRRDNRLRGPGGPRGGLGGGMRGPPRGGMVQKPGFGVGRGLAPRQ
Method: RNA Bind-n-Seq
Form: RNA
Medium: in vitro
Tested at: 1 µM
Notes: whole 134-nt RNA, ends assumed
Together with: 150 mM KCl
Baseline: input library
Reading: higher = stronger binding
Constant ends, left off below: GGGAGUUCUACAGUCCGACGAUC … UGGAAUUCUCGGGUGUCAAGG
Strand	log2 enrichment
CACAGACAACACGCACCCACACAGACACAGAGGGAAGGGGUUGGGAUGGGGACAGGGUGCACAGCAGGGCGGGGUAGGACCCCAGCCCCA	-0.919
ACCAUGCAUGUGGGCAUCUUUGGGAAGUGGGGCAAGGGGGGGAUAGGGAGGGGGGUAACACUUUGGGAACAGGUGGUCCCAGGUCGUUUC	-1.41
CAAGUCCUGUGCUACACAUCGUAUGUACCGAAUCGGAAAAAGGAAAAAGGAAAGGAAAGUAUUAUGUUACGCCGUUCGGAUCUGCACUUC	-1.89
UUCCUCAGGGUAGAACUGGAUGACUCAGACGUGUUCCAUGGUGAACCUGAACCUGAGGAGCUGCCUGGAGGUAAGGGCCCUGAACUGUCC	-2.56
AAGUCCUGUGCUACACAUCGUAUGUACCGAAUCGGGGUUUUGGUUUUGGUUUUGGGAAAGUAUUAUGUUACGCCGUUCGGAUCUGCACUU	-1.75
CACAGACAACACGCACCCACACAGACACAGAGGGAAGGGGUUGGGAUGGGGACAGGGUACACAGCAGGGCGGGGUAGGACCCCAGCCCCU	-0.296
GUCCUGUGCUACACAUCGUAUGUACCGAAUCGGGGUUUUUGGUUUUUGGGUUUUUGGGAAAGUAUUAUGUUACGCCGUUCGGAUCUGCAC	-1.11
AAGUCCUGUGCUACACAUCGUAUGUACCGAAUCGGGGAGGGGUUUGGGGUUUGGGGAAAGUAUUAUGUUACGCCGUUCGGAUCUGCACUU	2.33
UAGUCCAGCAUCAAGAUUCGCCGGCCUGGAUACAAAUCAGCGACUUACAGCUUUAGCUGAAGACAGACCGUUAUUUGAUGGACCUAGUAG	-2.15
GUCCUGUGCUACACAUCGUAUGUACCGAAUCGGGGAAAAAGGGGAAAAAGGAAAAAGGGAAAGUAUUAUGUUACGCCGUUCGGAUCUGCA	-1.35
GCAGGAAGUAAAAACAAAUGGAAAUGCUUCGGAUAGUGGCAGGGGUGGGGGUUGCUAAGGAAAGGGUGGGAUGGGAGUGGGUGAAGAGUU	0.599
UAACUUUAGAGGAGGAUCUGAUGGAUAUGGCAGUGGACGUGGAUCUGGGGAUGGCUAUAAUGGGUAUGGAGGAGGACCUGGAGGUGGCAA	-0.928
CAAGUCCUGUGCUACACAUCGUAUGUACCGAAUCGGGUUUUUGGGAAAGGGUGGGAAAGUAUUAUGUUACGCCGUUCGGAUCUGCACUUC	1.51
UCAAGUCCUGUGCUACACAUCGUAUGUACCGAAUCGGAAAGGGAAAGGGAAAGGAAAGUAUUAUGUUACGCCGUUCGGAUCUGCACUUCC	-1.38

Block 4
Target: RNA binding protein fox-1 homolog 2, RRM domain, GST-SBP tag (RBFOX2, Homo sapiens, UniProt O43251-10, residues 100-194)
Method: RNA Bind-n-Seq
Form: RNA
Medium: in vitro
Tested at: 365 nM
Notes: natural RNA segment, single round, ends assumed
Baseline: no-protein control
Reading: higher = stronger binding
Constant ends, left off below: GGGAGUUCUACAGUCCGACGAUC … UGGAAUUCUCGGGUGCCAA
Construct (chain): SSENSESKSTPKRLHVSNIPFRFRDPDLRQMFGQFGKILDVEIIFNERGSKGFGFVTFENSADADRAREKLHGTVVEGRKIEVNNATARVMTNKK
Strand	RBNS enrichment (R)
CCCACUGCACACUUGCUGUGUACAAUGACUGAGCCCUUUCUUGUAGUUUGUUUCCUUGUUUGAGAGGUGUGCAUGCGACCGUGGCUUUUCCCAAAGUUUCUGACUUUGUG	2.73
CAUCAACACAACCAGUCUAACAGUGAAGCUCUCCUUGGGCAUUUGAUGGGCGUCCAAGCAGACCACACGGAUCACUGAGGCACUGAUGUAGGCCCCUCUGCAACGACUUC	0.405
CUGCCACAGAGCAGCUUCCCACCUACCCUAGGGACUCCACAGCUUCUGGCAAGCAGGUGCAGAGUCCCCAGCUCUGGGCUGUGCUGGGGAGUGUCAGGCCUGGAGUCCAC	0.391
UCGGAGAGUGCUGCUAAAAUUGGAUUGGUGUGAUCUUUUUGGUAGUUGUAAUUUAACAGAAAAACACAAAAUUUCAACCAUUCUUAAUGUUACGUCCUCCCCCCACCCCC	0.302
CAACCCAGUAUCUCAUGUGCCAAAGCCUUCCCCCAGGUAGACAGAGGGGACAUUGCCUGAGAGCUCUUCAGGAGAGAGAUAGAUGGUUCGUCGAGUGCCAUCUUAUUUAU	0.459
AGCCUGGAGCCUGUGCCCAGGGCCGACAGGCGCGACACCCAGCAAGGCCACCUCUCCCCGGGCCCCCGCGCCUCUGCCGGACACGGACCGGCCCCUCAGCCCCCACCGAG	0.366
AGUACAAGUGCGAUUUCAAAAAGAUCUUGAAAGUAAUAUAUUUAAUCAAUUAAAAUGUUUAUCUGUACUUGUUGAUGUUUCAUUAAUAUAGUUACUCUCUGAAGCAUUAG	0.472
GCUCCUCCCUACAGGCACUGUCUGUCUUCACAGGGCUUGGUCUUUCUGCUGCCACUUGUGAAAACCGAAAAAAAACAAGACUACAUAGCACCGACUUUUUGAAAAUCAGA	0.648
CUCUAAAAGUGUGUCAUUUAGCGAAAACUUGAGAUUACAUUUCUUCCUGGGAGGAGUUAGAAGUAAUGGUUUAGUUCAGGCAGCUACACGUGCCUAUUUAUCCCUCGUUC	0.321
AGUUGUAAUUUAACAGAAAAACACAAAAUUUCAACCAUUCUUAAUGUUACGUCCUCCCCCCACCCCCUUCUUUCAGUGGUAUGCAACCACUGCAAUCACUGUGCAUAUGU	0.443
CUGCACUGGGAAGGAAACAAAUGUGUAUAAACUGCUGUCAAUAAAUGACACCCAGACCUUCCGGCUCGCCAUGGGUUGGUUUUUUGUUUGUGGGAGCCGUGGGAUCAGAA	1.17
CUUAAGAAGGCUUAAAAGACUGCAUGGUUUAAACCCUAGAAACAUAAAUGGAAUGUUUCUGCCUCAGUUCUUUUGACUACCUCCUAGGACAUGGAAACAAAUAUUUGGGA	0.602

Some of these lines once more (block 2):
Modification	mean fluorescence intensity [a.u.]
2'F-ANA at 1 3 5 6 9 13 15	52.4
2'F-ANA at 1 3 5 11 12 14 15	49
2'F-ANA at 3 7 10 12	802
2'F-ANA at 3 4 8 9 11 12 14 15	285
2'F-ANA at 1 2 3 4 5 6 7 11 12 13 15	71
2'F-ANA at 2 4 7 9 11 13 15	152
2'F-ANA at 1 2 5 7 8 9 10 11 14 15	48.6
2'F-ANA at 1 3 5 7 8 11 12 13 15	93.2
2'F-ANA at 2 3 5 9 11 12 15	177
